Experimental data pooled from the literature.
A part holds a random share of what one study measured. Several values in a cell are separate wells, animals, samples, runs or records.
Sequence of UniProt P10721 (whole entry, unmodified, looked up): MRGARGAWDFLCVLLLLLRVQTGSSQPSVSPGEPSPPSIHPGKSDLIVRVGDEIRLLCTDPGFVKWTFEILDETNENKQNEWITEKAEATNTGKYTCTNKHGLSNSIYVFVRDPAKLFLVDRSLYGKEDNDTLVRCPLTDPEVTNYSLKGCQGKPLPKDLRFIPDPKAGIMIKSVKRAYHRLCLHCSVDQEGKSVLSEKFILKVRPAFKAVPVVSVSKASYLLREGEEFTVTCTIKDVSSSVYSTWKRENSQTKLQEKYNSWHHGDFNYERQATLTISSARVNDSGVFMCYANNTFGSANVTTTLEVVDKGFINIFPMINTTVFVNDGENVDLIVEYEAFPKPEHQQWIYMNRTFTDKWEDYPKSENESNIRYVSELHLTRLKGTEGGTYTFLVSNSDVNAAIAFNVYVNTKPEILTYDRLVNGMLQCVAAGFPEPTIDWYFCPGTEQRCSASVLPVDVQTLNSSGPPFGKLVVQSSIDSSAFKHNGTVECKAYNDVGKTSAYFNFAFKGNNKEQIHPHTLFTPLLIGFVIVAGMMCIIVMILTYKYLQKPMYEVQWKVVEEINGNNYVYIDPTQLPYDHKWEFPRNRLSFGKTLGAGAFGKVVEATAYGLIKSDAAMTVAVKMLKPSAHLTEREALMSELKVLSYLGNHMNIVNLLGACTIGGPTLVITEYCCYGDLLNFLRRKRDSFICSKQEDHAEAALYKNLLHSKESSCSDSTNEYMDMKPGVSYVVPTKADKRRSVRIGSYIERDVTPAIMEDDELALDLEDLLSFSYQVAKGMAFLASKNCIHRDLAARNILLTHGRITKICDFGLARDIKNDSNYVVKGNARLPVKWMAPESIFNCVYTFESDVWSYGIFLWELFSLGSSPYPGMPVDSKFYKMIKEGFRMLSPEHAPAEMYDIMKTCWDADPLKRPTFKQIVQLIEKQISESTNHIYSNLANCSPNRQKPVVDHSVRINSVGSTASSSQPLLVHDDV
Sequence of UniProt Q8TBX8 (whole entry, looked up): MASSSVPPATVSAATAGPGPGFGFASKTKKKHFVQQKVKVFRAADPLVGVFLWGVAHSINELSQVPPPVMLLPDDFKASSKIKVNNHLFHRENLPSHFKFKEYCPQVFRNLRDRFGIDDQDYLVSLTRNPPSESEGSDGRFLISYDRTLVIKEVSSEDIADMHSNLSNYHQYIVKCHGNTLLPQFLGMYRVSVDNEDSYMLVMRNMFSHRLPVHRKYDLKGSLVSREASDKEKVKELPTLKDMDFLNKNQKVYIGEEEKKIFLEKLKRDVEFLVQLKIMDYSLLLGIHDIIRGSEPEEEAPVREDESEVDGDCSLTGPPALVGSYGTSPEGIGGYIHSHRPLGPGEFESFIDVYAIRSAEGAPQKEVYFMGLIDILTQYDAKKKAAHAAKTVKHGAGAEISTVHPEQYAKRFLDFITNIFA
Sequence of UniProt Q8IVW4 (whole entry, looked up): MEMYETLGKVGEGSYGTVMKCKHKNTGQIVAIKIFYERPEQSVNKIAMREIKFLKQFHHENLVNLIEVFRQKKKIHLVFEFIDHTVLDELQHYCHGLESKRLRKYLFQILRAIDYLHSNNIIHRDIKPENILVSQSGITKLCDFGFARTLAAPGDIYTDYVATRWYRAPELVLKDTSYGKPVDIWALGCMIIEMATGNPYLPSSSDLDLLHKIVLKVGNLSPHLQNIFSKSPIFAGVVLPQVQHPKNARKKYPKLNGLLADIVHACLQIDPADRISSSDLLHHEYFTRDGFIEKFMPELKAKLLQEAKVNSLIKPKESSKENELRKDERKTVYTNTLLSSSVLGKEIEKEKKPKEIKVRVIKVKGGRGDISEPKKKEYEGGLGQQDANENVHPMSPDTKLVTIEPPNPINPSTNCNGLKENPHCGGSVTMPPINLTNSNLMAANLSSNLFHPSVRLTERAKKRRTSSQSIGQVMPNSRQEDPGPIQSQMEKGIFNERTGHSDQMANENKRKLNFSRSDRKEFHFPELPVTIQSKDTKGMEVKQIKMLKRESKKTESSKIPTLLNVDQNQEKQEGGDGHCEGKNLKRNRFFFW
Sequence of UniProt Q9UM73 (whole entry, unmodified, looked up): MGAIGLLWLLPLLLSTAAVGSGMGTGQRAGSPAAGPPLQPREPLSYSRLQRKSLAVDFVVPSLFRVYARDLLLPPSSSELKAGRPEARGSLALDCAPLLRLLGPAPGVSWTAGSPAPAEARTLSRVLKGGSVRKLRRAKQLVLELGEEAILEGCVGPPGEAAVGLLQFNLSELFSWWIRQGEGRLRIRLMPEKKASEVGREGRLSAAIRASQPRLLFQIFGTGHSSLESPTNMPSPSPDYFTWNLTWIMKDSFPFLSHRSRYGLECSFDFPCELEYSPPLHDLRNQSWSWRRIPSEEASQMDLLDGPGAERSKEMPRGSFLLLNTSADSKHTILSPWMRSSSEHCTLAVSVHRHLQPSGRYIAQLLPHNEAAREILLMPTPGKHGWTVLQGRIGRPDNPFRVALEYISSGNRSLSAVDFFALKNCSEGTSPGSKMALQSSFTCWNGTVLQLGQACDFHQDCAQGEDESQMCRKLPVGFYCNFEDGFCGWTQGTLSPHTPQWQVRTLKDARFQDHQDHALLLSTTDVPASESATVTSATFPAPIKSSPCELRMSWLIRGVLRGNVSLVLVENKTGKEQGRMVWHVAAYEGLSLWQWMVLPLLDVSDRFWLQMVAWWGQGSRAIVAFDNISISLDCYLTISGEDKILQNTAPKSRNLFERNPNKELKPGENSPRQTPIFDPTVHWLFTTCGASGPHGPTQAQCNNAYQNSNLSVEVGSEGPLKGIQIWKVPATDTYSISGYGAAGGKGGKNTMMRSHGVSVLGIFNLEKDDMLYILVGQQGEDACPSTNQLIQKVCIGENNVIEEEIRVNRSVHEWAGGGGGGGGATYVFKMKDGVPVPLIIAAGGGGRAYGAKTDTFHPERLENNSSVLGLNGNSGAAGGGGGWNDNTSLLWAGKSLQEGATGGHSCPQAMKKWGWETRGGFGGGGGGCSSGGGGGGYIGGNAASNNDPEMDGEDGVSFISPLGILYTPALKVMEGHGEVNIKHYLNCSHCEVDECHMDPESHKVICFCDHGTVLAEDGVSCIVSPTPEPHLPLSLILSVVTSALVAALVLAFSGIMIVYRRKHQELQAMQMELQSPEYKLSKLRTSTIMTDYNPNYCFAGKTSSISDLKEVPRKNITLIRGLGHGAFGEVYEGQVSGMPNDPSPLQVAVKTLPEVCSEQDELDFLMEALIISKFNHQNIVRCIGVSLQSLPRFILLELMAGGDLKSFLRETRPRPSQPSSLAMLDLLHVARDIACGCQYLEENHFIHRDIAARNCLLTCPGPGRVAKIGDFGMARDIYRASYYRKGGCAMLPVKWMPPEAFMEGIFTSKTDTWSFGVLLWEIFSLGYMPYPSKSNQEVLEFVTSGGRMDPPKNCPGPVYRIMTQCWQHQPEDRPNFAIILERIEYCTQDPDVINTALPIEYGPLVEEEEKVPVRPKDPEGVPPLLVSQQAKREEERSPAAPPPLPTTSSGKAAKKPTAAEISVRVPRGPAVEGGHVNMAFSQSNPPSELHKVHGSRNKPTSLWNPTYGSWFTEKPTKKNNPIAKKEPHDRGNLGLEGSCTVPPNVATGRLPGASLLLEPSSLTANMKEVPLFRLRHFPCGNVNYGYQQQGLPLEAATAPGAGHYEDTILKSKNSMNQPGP

Sample 1
Compound: CN(C)C(=O)Cn1cc(-c2nc(C3(c4ccc(-c5cnc(N)nc5)cc4)CC3)no2)cn1
Read-out: cell-free assay
Method: competition with immobilised ligand
Tested at: 1 µM
target	remaining binding
ALK (Homo sapiens, UniProt Q9UM73, L1196M)	92%
CDKL3 (Homo sapiens, UniProt Q8IVW4)	80%
ULK1 (Homo sapiens, UniProt O75385)	75%
MAP3K12 (Homo sapiens, UniProt Q12852)	100%
FLT3 (Homo sapiens, UniProt P36888, F691L/ITD)	85%
MAPK1 (Homo sapiens, UniProt P28482)	81%
PIK3C2G (Homo sapiens, UniProt O75747)	76%
PIP4K2C (Homo sapiens, UniProt Q8TBX8)	100%
CSNK1G3 (Homo sapiens, UniProt Q9Y6M4)	100%
KIT (Homo sapiens, UniProt P10721, V559D)	100%
MAP3K20 (Homo sapiens, UniProt Q9NYL2)	92%
NEK2 (Homo sapiens, UniProt P51955)	100%
ULK2 (Homo sapiens, UniProt Q8IYT8)	78%
Mast/stem cell growth factor receptor Kit, autoinhibited (KIT, Homo sapiens, UniProt P10721)	77%
COQ8A (Homo sapiens, UniProt Q8NI60)	99%
TESK1 (Homo sapiens, UniProt Q15569)	94%
NTRK3 (Homo sapiens, UniProt Q16288)	97%

Sample 2
Target: Calcium/calmodulin-dependent protein kinase type II subunit alpha (CAMK2A, Homo sapiens, UniProt Q9UQM7)
Sequence of UniProt Q9UQM7 (whole entry, looked up): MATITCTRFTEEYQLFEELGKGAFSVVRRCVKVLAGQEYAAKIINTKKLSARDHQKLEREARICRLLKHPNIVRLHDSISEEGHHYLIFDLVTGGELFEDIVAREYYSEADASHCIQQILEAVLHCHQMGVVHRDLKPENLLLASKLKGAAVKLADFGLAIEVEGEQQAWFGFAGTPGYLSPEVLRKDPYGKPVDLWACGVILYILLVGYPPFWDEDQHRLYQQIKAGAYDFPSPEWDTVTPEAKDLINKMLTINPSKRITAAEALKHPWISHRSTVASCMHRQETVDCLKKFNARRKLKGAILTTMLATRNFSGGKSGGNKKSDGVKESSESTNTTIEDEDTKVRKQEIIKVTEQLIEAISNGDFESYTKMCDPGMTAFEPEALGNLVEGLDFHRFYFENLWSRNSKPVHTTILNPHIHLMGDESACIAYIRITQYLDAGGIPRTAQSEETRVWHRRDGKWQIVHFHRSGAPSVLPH
Read-out: enzyme activity
Action: inhibitor
Tested at: 10 µM
Compound	inhibition
COc1ccc(-c2coc3cc(O[C@@H]4O[C@H](CO[C@@H]5OC[C@@H](O)[C@H](O)[C@H]5O)[C@@H](O)[C@H](O)[C@H]4O)c(OC)c(O)c3c2=O)cc1	-36%
N[C@H](CC(=O)O)C(=O)O	-13%
CC(C)(C)NCC(O)COc1cccc2c1C[C@H](O)[C@H](O)C2 (mixture of isomers)	-9%
O=C1[C@H](CC[C@H](O)c2ccc(F)cc2)[C@@H](c2ccc(O)cc2)N1c1ccc(F)cc1	-10%

Sample 3
Target: Serine/threonine-protein kinase N2 (PKN2, Homo sapiens, UniProt Q16513)
Sequence of UniProt Q16513 (whole entry, looked up): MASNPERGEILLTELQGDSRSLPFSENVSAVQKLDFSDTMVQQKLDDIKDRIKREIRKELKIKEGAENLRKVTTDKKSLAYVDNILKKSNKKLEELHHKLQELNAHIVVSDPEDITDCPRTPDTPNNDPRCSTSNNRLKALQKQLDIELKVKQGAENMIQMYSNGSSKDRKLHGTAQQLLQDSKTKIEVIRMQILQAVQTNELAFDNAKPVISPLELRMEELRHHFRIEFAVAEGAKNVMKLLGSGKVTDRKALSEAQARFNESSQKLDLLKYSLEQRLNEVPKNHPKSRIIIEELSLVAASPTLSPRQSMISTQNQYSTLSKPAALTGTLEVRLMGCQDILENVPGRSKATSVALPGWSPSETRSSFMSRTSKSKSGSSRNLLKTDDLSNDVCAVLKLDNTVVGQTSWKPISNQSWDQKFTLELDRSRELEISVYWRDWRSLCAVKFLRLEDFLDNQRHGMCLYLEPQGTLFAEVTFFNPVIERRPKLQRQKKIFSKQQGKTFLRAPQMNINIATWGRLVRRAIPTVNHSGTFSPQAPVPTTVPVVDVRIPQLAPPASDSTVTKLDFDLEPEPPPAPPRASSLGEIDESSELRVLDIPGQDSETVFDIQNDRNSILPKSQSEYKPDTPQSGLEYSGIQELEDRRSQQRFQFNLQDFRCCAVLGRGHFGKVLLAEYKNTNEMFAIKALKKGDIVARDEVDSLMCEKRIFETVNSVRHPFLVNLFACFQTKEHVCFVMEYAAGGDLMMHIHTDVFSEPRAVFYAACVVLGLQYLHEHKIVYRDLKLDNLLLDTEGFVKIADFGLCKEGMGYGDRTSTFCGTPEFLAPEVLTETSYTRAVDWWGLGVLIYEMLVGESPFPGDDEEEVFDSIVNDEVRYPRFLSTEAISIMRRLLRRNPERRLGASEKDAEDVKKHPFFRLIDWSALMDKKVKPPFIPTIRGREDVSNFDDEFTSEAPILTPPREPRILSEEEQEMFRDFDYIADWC
Read-out: enzyme activity
Action: inhibitor
Tested at: 0.5 µM
Baseline: control
Compound	remaining activity [%]
Cc1cncc2cccc(S(=O)(=O)N3CCCN(C(=O)CN)C[C@@H]3C)c12	74.7
COc1ccc(S(=O)(=O)N(CCO)c2ccccc2CN(C)CC=Cc2ccc(Cl)cc2)cc1	101
NC(=O)c1ccc(N(C(N)=O)c2c(F)cccc2F)nc1-c1ccc(F)cc1F	99.7

Sample 4
Cell line: mouse MPNST tumor cells
Method: high-content immunofluorescence imaging
Item: nuclear SOX9
Tested at: 10 µM
Time: 12 h
Setting: mean of 2 replicates
Baseline: DMSO control
Direction: higher = more nuclear SOX9
SMILES	nuclear SOX9 intensity
NC(=O)c1noc([C@H](CCCC2CCCCC2)CC(=O)NO)n1	107 % of DMSO
C=CCc1ccccc1OCC(O)CNC(C)C (stereo not drawn)	139 % of DMSO
S=P(N1CC1)(N1CC1)N1CC1	107 % of DMSO
Cc1coc2c1C(=O)C(=O)c1c-2ccc2c(C)cccc12	83.8 % of DMSO
OC(Cn1cncn1)(Cn1cncn1)c1ccc(F)cc1F	92.9 % of DMSO
O=C1CN(/N=C/c2ccc(-c3ccc([N+](=O)[O-])cc3)o2)C(=O)N1	100 % of DMSO and 86.6 % of DMSO

Sample 5
Medium: hydrocarbon/water
SMILES	logD
CC(C)CC1NC(=O)CN(CC2CCOCC2)C(=O)C2CCCN2C(=O)C(CC(C)C)NC(=O)C(C)N(C)C(=O)C(CC(C)C)NC(=O)CN(CCCOC(C)C)C(=O)C2CCCN2C(=O)C(C)NC(=O)C(C)N(C)C1=O (stereo not drawn)	1.33
CC(C)C[C@@H]1NC(=O)[C@H](C)N(C)C(=O)[C@H](CC2CCCCC2)NC(=O)CN(CC(C)C)C(=O)[C@H]2CCCN2C(=O)[C@H](CC2CCCCC2)NC(=O)[C@H](C)N(C)C(=O)[C@H](CC(C)C)NC(=O)Cn2cc(nn2)CN(C)C1=O	2.36
CCC[C@@H]1NC(=O)CN(CC)C(=O)[C@H](CC(C)C)NC(=O)Cn2cc(nn2)CN(C)C(=O)[C@H](CC(C)C)NC(=O)[C@H](C)N(C)C(=O)[C@H](CC2CCCCC2)NC(=O)[C@H](C)N(C)C(=O)[C@H]2CCCN2C1=O	0.101
CCC[C@@H]1NC(=O)[C@H](C)N(C)C(=O)[C@H](CC(C)C)NC(=O)CSC[C@@H](C(=O)OCC)N(C)C(=O)[C@H](CC(C)C)NC(=O)[C@H](C)N(C)C(=O)[C@H](CC2CCCCC2)NC(=O)[C@H](CC)N(C)C(=O)[C@H]2CCCN2C1=O	3.04
CC(C)C[C@@H]1NC(=O)[C@H](Cc2ccccc2)N(C)C(=O)[C@H]2CCCN2C(=O)[C@H](CC(C)C)NC(=O)[C@H](C)N(C)C(=O)[C@@H](CC(C)C)N(C)C1=O	2.32
CCC[C@@H]1C(=O)N(C)[C@@H](CC2CCCCC2)C(=O)N[C@@H](CC2CCCCC2)C(=O)N2CCC[C@@H]2C(=O)N(C)[C@@H](Cc2ccc(O)cc2)C(=O)N[C@@H](CC(C)C)C(=O)N1C	3.22

Some of these lines once more (sample 3):
Compound	remaining activity [%]
Cc1cncc2cccc(S(=O)(=O)N3CCCN(C(=O)CN)C[C@@H]3C)c12	74.7
NC(=O)c1ccc(N(C(N)=O)c2c(F)cccc2F)nc1-c1ccc(F)cc1F	99.7
COc1ccc(S(=O)(=O)N(CCO)c2ccccc2CN(C)CC=Cc2ccc(Cl)cc2)cc1	101
